Assay results of several laboratories.
“And” joins repeats or separate records; there may be more than shown. ± marks the error that the study gave.
dppA: dppA (Mycobacterium tuberculosis, UniProt I6X811)
USP14: Ubiquitin carboxyl-terminal hydrolase 14 (USP14, Homo sapiens, UniProt P54578)
UniProt P54578, sequence (whole entry, looked up): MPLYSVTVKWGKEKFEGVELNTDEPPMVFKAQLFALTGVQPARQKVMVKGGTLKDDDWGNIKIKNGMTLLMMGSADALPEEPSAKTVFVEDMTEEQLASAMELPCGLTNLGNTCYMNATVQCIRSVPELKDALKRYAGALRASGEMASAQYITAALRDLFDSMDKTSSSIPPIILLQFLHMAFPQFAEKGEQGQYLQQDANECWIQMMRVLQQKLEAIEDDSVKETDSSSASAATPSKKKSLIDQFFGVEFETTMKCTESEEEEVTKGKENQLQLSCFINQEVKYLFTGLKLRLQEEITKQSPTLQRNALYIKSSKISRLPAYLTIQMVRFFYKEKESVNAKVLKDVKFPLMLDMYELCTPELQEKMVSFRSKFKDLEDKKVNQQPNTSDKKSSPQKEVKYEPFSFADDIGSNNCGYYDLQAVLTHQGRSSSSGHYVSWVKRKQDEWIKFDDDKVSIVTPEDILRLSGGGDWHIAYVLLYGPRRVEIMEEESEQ
4'-phosphopantetheinyl transferase PptT: 4'-phosphopantetheinyl transferase PptT (Mycobacterium tuberculosis, UniProt O33336)
UniProt O33336, sequence (whole entry, looked up): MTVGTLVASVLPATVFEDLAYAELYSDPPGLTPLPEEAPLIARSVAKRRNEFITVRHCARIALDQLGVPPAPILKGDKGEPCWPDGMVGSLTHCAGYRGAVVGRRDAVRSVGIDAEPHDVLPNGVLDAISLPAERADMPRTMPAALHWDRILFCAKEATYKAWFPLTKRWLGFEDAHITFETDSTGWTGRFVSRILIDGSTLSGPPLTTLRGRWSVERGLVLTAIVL
CNR1: Cannabinoid receptor 1 (CNR1, Homo sapiens, UniProt P21554)
UniProt P21554, sequence (whole entry, unmodified, looked up): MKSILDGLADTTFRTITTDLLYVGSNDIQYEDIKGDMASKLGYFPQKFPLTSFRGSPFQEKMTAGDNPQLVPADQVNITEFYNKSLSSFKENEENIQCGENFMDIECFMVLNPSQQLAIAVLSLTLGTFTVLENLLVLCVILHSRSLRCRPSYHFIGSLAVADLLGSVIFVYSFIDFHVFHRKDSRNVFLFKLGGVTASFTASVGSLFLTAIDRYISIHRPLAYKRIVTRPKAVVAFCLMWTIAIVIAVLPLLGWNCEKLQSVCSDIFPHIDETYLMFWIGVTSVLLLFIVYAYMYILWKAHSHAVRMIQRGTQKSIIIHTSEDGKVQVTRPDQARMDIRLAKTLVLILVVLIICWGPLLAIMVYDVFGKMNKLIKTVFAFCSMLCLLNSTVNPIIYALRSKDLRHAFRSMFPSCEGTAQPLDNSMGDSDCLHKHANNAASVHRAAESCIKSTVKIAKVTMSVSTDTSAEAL
UniProt P29371, sequence (whole entry, looked up): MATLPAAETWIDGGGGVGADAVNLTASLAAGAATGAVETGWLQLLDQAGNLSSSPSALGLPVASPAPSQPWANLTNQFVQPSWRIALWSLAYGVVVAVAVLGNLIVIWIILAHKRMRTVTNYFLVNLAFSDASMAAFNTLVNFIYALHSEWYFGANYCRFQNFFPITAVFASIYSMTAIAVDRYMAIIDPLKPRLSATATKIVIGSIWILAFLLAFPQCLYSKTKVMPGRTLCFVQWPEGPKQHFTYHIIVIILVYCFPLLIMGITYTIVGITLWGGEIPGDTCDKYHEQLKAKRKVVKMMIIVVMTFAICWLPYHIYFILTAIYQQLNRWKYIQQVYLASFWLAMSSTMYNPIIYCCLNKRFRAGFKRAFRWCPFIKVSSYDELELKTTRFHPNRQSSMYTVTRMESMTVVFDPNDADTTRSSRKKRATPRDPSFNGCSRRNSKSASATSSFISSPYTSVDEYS
UniProt P9WPA5, sequence (whole entry, looked up): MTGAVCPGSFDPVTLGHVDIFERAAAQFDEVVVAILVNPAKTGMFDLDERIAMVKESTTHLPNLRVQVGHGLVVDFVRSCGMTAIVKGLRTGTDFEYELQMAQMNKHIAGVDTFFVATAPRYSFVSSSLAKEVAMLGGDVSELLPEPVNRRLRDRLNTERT
UniProt P53355, sequence (whole entry, looked up): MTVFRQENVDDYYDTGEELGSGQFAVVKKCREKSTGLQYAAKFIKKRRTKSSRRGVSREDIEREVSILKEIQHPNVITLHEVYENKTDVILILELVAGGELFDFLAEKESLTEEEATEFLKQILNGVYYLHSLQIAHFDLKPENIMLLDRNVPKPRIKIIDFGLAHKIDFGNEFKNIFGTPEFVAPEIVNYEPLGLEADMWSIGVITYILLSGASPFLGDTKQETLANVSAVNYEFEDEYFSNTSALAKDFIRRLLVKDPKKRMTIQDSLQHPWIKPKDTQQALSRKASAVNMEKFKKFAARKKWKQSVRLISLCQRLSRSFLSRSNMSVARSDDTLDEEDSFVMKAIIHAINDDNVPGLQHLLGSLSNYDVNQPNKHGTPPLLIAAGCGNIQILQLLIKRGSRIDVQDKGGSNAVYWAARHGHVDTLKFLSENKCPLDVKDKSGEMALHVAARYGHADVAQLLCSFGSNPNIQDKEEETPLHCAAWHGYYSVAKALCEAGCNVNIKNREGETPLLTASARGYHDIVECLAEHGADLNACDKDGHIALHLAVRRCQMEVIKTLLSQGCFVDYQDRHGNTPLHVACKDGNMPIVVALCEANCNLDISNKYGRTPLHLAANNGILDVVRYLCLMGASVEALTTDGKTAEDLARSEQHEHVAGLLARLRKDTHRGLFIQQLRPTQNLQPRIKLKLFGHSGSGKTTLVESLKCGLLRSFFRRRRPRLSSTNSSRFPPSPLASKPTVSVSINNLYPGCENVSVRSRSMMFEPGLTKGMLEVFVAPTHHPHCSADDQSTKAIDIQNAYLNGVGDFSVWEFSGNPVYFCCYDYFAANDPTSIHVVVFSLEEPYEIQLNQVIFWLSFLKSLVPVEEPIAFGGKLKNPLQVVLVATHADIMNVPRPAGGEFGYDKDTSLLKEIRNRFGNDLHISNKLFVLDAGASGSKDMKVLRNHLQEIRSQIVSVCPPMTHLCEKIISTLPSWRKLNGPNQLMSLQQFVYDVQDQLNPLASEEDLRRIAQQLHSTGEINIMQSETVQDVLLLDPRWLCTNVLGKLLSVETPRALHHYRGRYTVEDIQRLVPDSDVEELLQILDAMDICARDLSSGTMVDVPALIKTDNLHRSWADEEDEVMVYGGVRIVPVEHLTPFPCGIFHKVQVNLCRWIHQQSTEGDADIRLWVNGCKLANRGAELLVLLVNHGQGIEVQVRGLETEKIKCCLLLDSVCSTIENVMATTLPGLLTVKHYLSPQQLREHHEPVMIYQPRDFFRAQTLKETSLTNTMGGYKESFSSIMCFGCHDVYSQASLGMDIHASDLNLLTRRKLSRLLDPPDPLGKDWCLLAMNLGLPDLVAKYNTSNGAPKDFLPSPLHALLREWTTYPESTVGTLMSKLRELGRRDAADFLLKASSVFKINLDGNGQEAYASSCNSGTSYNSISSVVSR
UniProt P22455, sequence (whole entry, looked up): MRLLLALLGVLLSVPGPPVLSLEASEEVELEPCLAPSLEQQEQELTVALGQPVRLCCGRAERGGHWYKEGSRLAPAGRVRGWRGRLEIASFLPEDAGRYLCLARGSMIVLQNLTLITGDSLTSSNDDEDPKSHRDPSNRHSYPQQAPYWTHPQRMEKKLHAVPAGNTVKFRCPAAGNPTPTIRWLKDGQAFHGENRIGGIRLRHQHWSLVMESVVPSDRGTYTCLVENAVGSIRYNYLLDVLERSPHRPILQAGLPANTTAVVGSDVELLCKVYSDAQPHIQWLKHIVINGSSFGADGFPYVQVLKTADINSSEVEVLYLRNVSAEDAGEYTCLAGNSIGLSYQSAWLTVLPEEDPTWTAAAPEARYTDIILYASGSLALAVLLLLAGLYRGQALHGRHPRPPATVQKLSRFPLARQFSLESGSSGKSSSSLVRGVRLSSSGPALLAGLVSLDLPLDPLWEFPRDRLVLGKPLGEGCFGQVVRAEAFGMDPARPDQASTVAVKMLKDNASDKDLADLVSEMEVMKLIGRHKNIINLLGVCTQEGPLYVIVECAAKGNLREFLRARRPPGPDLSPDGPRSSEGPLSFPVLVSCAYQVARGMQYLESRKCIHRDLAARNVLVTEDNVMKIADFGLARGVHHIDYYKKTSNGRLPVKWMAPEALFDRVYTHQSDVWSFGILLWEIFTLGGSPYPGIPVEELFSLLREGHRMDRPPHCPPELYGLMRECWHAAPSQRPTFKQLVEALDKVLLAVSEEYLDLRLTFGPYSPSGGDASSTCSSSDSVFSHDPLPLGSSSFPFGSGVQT
UniProt Q96GD4, sequence (whole entry, looked up): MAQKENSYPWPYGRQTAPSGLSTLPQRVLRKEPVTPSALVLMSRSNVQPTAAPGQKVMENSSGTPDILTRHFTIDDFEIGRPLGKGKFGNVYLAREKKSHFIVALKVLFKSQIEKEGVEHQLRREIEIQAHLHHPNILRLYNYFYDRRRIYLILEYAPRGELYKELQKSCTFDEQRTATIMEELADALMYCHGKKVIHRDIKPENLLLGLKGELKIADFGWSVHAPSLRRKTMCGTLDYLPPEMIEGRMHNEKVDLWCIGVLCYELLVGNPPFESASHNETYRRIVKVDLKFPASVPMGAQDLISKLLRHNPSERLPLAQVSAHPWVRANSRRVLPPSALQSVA
UniProt P08311, sequence (whole entry, looked up): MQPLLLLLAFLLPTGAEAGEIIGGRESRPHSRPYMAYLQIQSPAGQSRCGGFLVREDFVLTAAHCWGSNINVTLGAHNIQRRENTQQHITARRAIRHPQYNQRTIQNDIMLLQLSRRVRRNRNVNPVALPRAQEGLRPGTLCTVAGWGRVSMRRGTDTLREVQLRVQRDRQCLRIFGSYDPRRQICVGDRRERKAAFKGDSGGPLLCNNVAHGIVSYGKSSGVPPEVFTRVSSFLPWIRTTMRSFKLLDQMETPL

SMILES = CC[C@H](C)[C@@H]1NC(=O)CNC(=O)[C@@H]2Cc3c([nH]c4cc(O)ccc34)[S@+]([O-])C[C@H](NC(=O)CNC1=O)C(=O)N[C@@H](CC(N)=O)C(=O)N1C[C@H](O)C[C@H]1C(=O)N[C@@H]([C@@H](C)[C@@H](O)CO)C(=O)N2; target or system = DNA-directed RNA polymerase II subunit RPB1 (Homo sapiens, UniProt P24928); test system = HeLa nuclear extract; setting = 1.0 nM, 60 min; measurement = transcription activity; result = 85 ± 2%
SMILES = CS(C)(=O)=Nc1ccc(-c2ccc(-c3nc4cc(O[C@@H]5CO[C@H]6[C@@H]5OC[C@H]6O)[nH]c4cc3F)cc2)cc1; target or system = FGFR4 (Homo sapiens, UniProt P22455); test = enzyme activity, inhibitor; setting = 10 µM; measurement = inhibition; result = -14%
SMILES = CC(C)[C@H](N)C(=O)N[C@H](C(=O)N[C@@H](CC(=O)O)C(=O)O)C(C)C; target or system = dppA; setting = pH 7.4; measurement = kon; result = 1.1 ± 10000 M⁻¹ s⁻¹
SMILES = CC[C@H](C)[C@H](NC(=O)[C@H](CO)NC(=O)[C@H](CC(N)=O)NC(=O)[C@H](CC(C)C)NC(=O)[C@H](Cc1ccc(O)cc1)NC(=O)[C@H](CCCCN)NC(=O)[C@H](CCCCN)NC(=O)[C@@H](NC(=O)[C@H](C)NC(=O)[C@H](CCSC)NC(=O)[C@H](CCC(N)=O)NC(=O)[C@H](CCCCN)NC(=O)[C@H](CCCNC(=N)N)NC(=O)[C@H](CC(C)C)NC(=O)[C@H](CCCNC(=N)N)NC(=O)[C@@H](NC(=O)[C@H](Cc1ccc(O)cc1)NC(=O)[C@H](CC(N)=O)NC(=O)[C@H](CC(=O)O)NC(=O)[C@@H](NC(=O)[C@H](Cc1ccccc1)NC(=O)[C@@H](NC(=O)[C@H](C)NC(=O)[C@H](CC(=O)O)NC(=O)[C@H](CO)NC(=O)[C@@H](N)Cc1c[nH]cn1)C(C)C)[C@@H](C)O)[C@@H](C)O)C(C)C)C(=O)N[C@@H](CC(C)C)C(=O)N[C@@H](CC(N)=O)C(N)=O; target or system = ADCYAP1R1 (Homo sapiens, UniProt P41586); test = cAMP production, agonist; test system = COS-7; setting = 37 °C, AUC over 20 min; measurement = Emax; result = 72 ± 4%
SMILES = CCCCCn1cc(C(=O)c2ccc3ccccc3c2)c2ccccc21; target or system = CNR1 (Homo sapiens, UniProt P21554, F177A); test = Gαi1 engagement, agonist, BRET; scale = reference: reference agonist at wild-type CB1; measurement = Emax; result = 10.9 ± 2.2%
SMILES = COc1ccc(CC2C(=O)NC(=O)N(c3cccc(Cl)c3)C2=O)cc1 (centres unmarked); target or system = USP14; test = enzyme activity, inhibitor; setting = 17 µM; measurement = inhibition; result = 28%
SMILES = CC(C)[C@H]1NC(=O)C[C@H]2/C=C/CCSSC[C@@H](NC1=O)C(=O)N[C@H](Cc1cccc3ccccc13)C(=O)NCC(=O)O2; target or system = EPHA3 (Homo sapiens, UniProt P29320); test = enzyme activity, inhibitor; setting = 10 µM; measurement = inhibition; result = -1.2%
SMILES = O=C1NC(=O)c2c1c1cc(F)c[n+]3c1c1c2c2cc(O)ccc2[n]1[Ru-4]312([N]=C=S)[S+]3CC[S+]1CC[S+]2CC3 (centres unmarked); target or system = DAPK1 (Homo sapiens, UniProt P53355); test = enzyme activity; setting = 100 nM, human enzyme, added: 10 µM ATP; scale = reference: untreated; measurement = remaining activity; result = 2%
SMILES = CC(C)C[C@H](NC(=O)[C@H](CC(C)C)NC(=O)[C@H](CC(C)C)NC(=O)[C@@H](N)CC(C)C)C(=O)O; target or system = dppA; setting = pH 7.4; measurement = kon; result = 4.26 ± 300 M⁻¹ s⁻¹
SMILES = CC[C@H](C)[C@H](NC(=O)[C@H](CO)NC(=O)[C@H](Cc1ccc(O)cc1)NC(=O)[C@H](Cc1ccc(O)cc1)NC(=O)[C@H](CC(N)=O)NC(=O)CNC(=O)[C@H](CO)NC(=O)[C@H](Cc1ccc(O)cc1)NC(=O)[C@H](CO)NC(=O)[C@H](CO)NC(=O)[C@H](CC(N)=O)NC(=O)COCCOCCNC(=O)CN1CCN(CC(=O)O)CCN(CC(=O)O)CCN(CC(=O)O)CC1)C(=O)N[C@@H](CC(C)C)C(N)=O [copper-64 labelled]; test = dynamic PET; test system = tamoxifen-induced PDAC mouse model, pancreas; setting = 27.5 min, CLDN4-expressing tumours; measurement = maximum pancreas uptake; result = 15.5 %IA/cc
SMILES = Cc1sc2c(c1C)C(c1ccc(Cl)cc1)=NC(CC(=O)OC(C)(C)C)c1nnc(C)n1-2 (centres unmarked); target or system = TACR3 (Homo sapiens, UniProt P29371); test = ligand displacement, radioligand; setting = 1 µM; measurement = remaining binding; result = 123%
SMILES = Cc1ccc2c(C(C[N+](=O)[O-])c3cccs3)c(-c3ccccc3)[nH]c2c1 (centres unmarked); target or system = CNR1 (Homo sapiens, UniProt P21554, V249A); test = β-arrestin2 recruitment, NanoBiT; scale = reference: wild type; measurement = efficacy ratio; result = ~2.2 fold
SMILES = C#CCN(Cc1ccc2nc(C)[nH]c(=O)c2c1)c1ccc(C(=O)NC(CCC(=O)O)C(=O)O)cc1 (centres unmarked); target or system = 4'-phosphopantetheinyl transferase PptT; test = enzyme activity, inhibitor, fluorescence polarisation; measurement = Hill slope; result = 1.3
SMILES = CN(C)[C@H]1C[C@@]23CC[C@@]4(O2)C(=CC[C@]2(C)[C@@H](c5ccc6ccncc6c5)CC[C@H]24)C=C3[C@@H](O)[C@@H]1O; target or system = PRKCI (Homo sapiens, UniProt P41743); test = ATP probe labelling, inhibitor, KiNativ profiling; setting = 0.1 µM; measurement = inhibition; result = -13.5%
SMILES = C#CCN(Cc1ccc2nc(C)[nH]c(=O)c2c1)c1ccc(C(=O)N[C@@H](CSCCC(=O)O)C(=O)O)cc1; target or system = 4'-phosphopantetheinyl transferase PptT; test = enzyme activity, inhibitor, fluorescence polarisation; measurement = Hill slope; result = 1.5
SMILES = O=C1NC2(CC2)COc2ncc(F)cc2[C@H]2COCCN2c2ccn3ncc1c3n2; test system = Sprague-Dawley rat, female, liver; setting = oral, 10 mg/kg/day, 4 weeks, end of treatment; measurement = organ-to-brain weight ratio; result = 620 ± 107%
SMILES = Cc1nc2ccc(CN(C)c3ccc(C(=O)NC(C(=O)O)C(C)CC(=O)O)cc3)cc2c(=O)[nH]1 (centres unmarked); target or system = 4'-phosphopantetheinyl transferase PptT; test = enzyme activity, inhibitor, fluorescence polarisation; measurement = Hill slope; result = 1.2
SMILES = CCCCCn1cc(C(=O)c2cccc3c2CC(C)(C)C3)c2ccccc21; target or system = CNR1; test = cAMP inhibition, agonist, CAMYEL BRET biosensor; setting = added: forskolin 10 µM; scale = reference: reference agonist at wild type; measurement = Emax; result = 101 ± 2.6%
SMILES = C=CCN(Cc1ccc2nc(C)[nH]c(=O)c2c1)c1ccc(C(=O)N[C@H](CCC(=O)O)C(=O)O)s1; target or system = 4'-phosphopantetheinyl transferase PptT; test = enzyme activity, inhibitor, fluorescence polarisation; measurement = Hill slope; result = 1.3
SMILES = Cc1cc(C(=O)Nc2nc3cccc(C)c3n2[C@H]2CCCCN(C(=O)/C=C/CN(C)C)C2)ccn1; target or system = Trypanosoma brucei; test = cell growth, Alamar Blue; test system = 2T1 overexpressing Tb927.3.690; scale = reference: parental 2T1; measurement = EC50 fold shift; result = 0.97 fold and 1.31 fold
SMILES = CCCCCn1cc(C(=O)c2ccc3c(c2)CC(C)(C)C3)c2ccccc21; target or system = CNR1 (Homo sapiens, UniProt P21554, F174A); test = Gαi1 engagement, agonist, BRET; scale = reference: reference agonist at wild-type CB1; measurement = Emax; result = 43.1 ± 4.2%
SMILES = O=C(O)c1cnn(-c2ccccc2)c1OCCCCc1c[nH]c2ccccc12; target or system = Phosphopantetheine adenylyltransferase (coaD, Mycobacterium tuberculosis, UniProt P9WPA5); test = ITC; setting = concentration not given; scale = ligand per protomer; measurement = binding stoichiometry; result = 0.5
SMILES = COc1ccccc1-c1n[nH]c2nc(N[C@H]3CC[C@H](NS(=O)(=O)CC(C)C)CC3)ncc12; test = bead binding, competition bead pull-down, item: LINJ.32.2780; test system = Leishmania donovani extract; setting = 10 µM; scale = reference: vehicle; measurement = relative abundance; result = 0.96
SMILES = CC(C)(C)C(=O)OCOP(=O)(OCOC(=O)C(C)(C)C)C1CCCN(O)C1=O (centres unmarked); target or system = K562; measurement = TGI; result = > 100 µM
SMILES = C[C@H](N)C(=O)N[C@@H](C)C(=O)N[C@@H](C)C(=O)N[C@@H](C)C(=O)O; target or system = dppA; setting = pH 7.4; measurement = kon; result = 3.21 ± 2000 M⁻¹ s⁻¹
SMILES = COc1ccccc1C(C[N+](=O)[O-])c1c(-c2ccccc2)[nH]c2ccccc12 (centres unmarked); target or system = CNR1 (Homo sapiens, UniProt P21554, L387A); test = Gαi1-γ2 dissociation, BRET; measurement = Emax; result = 59.5 ± 3.43%
SMILES = Nc1ccc(/C=C/C(=O)N2CCc3c(oc4c(-c5ccc(F)cc5)cc(-c5ccc(C(=O)N6CCC(F)(F)CC6)cn5)cc34)C2)cn1; target or system = Aurora kinase B (AURKB, Homo sapiens, UniProt Q96GD4); test = binding, competition with immobilised ligand; setting = 1 µM; measurement = remaining binding; result = 92%
SMILES = Cc1nc2ccc(CN(C)c3ccc(C(=O)NC(CCC(=O)O)CC(=O)O)cc3)cc2c(=O)[nH]1 (centres unmarked); target or system = 4'-phosphopantetheinyl transferase PptT; test = enzyme activity, inhibitor, fluorescence polarisation; measurement = Hill slope; result = 1.4
SMILES = COc1ccc2nccc(CC[C@H]3OC[C@H](NC(=O)c4ccc5c(c4)NC(=O)CO5)CO3)c2c1; target or system = DNA gyrase subunit A, with GyrB (Mycobacterium tuberculosis, UniProt P9WG47); test = DNA cleavage; setting = concentration not given, 10 min, 37 °C, added: gyrase 100 nM; measurement = maximal single-stranded DNA breaks; result = ~15%
SMILES = COc1ccccc1-c1n[nH]c2nc(NC3CCN(C(=O)Cc4ccc(F)cc4F)CC3)ncc12; test = bead binding, competition bead pull-down, item: LINJ.35.1230; test system = Leishmania donovani axenic amastigote extract; setting = 10 µM; scale = reference: vehicle; measurement = relative abundance; result = 0.88
SMILES = CN1C(=O)C(=Cc2ccc(I)o2)C(=O)NC1=S; target or system = USP14; test = enzyme activity, inhibitor; setting = 17 µM; measurement = inhibition; result = 36%
SMILES = CC(C)[C@H](N)C(=O)N[C@H](C(=O)N[C@@H](CCCCN)C(=O)O)C(C)C; target or system = dppA; setting = pH 7.4; measurement = kon; result = 3.1 ± 2000 M⁻¹ s⁻¹
SMILES = C#CCN(Cc1cc(Cl)c2nc(C)[nH]c(=O)c2c1)c1ccc(C(=O)N[C@H](CCC(=O)O)C(=O)O)cc1; target or system = 4'-phosphopantetheinyl transferase PptT; test = enzyme activity, inhibitor, fluorescence polarisation; measurement = Hill slope; result = 1.6
SMILES = N[C@H](C(=O)N1CCCC1)C1CCN(c2nccc3c(-c4ncc(Cl)cc4Cl)cccc23)CC1; target or system = L-type calcium channel verapamil site; test = binding, radioligand binding; setting = 10 µM; measurement = inhibition; result = -5%
SMILES = CC(C)CC(C(=O)N1CC2(CC1C#N)C(=O)Nc1ccccc12)N(C)C(=O)c1cc2c(F)cc(F)c(F)c2[nH]1 (centres unmarked); target or system = Cathepsin G (CTSG, Homo sapiens, UniProt P08311); measurement = Hill slope; result = -0.34
SMILES = CC(C)[C@H](N)C(=O)N[C@@H](CCCCN)C(=O)N[C@H](C(=O)O)C(C)C; target or system = dppA; setting = pH 7.4; measurement = kon; result = 7.49 ± 8000 M⁻¹ s⁻¹
SMILES = Cc1nc2ccc(CNc3ccc(C(=O)NC(CCC(=O)O)C(=O)O)cc3F)cc2c(=O)[nH]1 (centres unmarked); target or system = 4'-phosphopantetheinyl transferase PptT; test = enzyme activity, inhibitor, fluorescence polarisation; measurement = Hill slope; result = 1.5
SMILES = O=[N+]([O-])CC(c1ccco1)c1c(-c2ccccc2)[nH]c2ccccc12 (centres unmarked); target or system = CNR1; test = G protein activation, agonist, BRET; measurement = Emax; result = 25.9%

For quick reference, copied from above:
SMILES = O=C1NC2(CC2)COc2ncc(F)cc2[C@H]2COCCN2c2ccn3ncc1c3n2; test system = Sprague-Dawley rat, female, liver; setting = oral, 10 mg/kg/day, 4 weeks, end of treatment; measurement = organ-to-brain weight ratio; result = 620 ± 107%
SMILES = CN1C(=O)C(=Cc2ccc(I)o2)C(=O)NC1=S; target or system = USP14; test = enzyme activity, inhibitor; setting = 17 µM; measurement = inhibition; result = 36%
SMILES = O=C1NC(=O)c2c1c1cc(F)c[n+]3c1c1c2c2cc(O)ccc2[n]1[Ru-4]312([N]=C=S)[S+]3CC[S+]1CC[S+]2CC3 (centres unmarked); target or system = DAPK1 (Homo sapiens, UniProt P53355); test = enzyme activity; setting = 100 nM, human enzyme, added: 10 µM ATP; scale = reference: untreated; measurement = remaining activity; result = 2%
SMILES = CCCCCn1cc(C(=O)c2ccc3ccccc3c2)c2ccccc21; target or system = CNR1 (Homo sapiens, UniProt P21554, F177A); test = Gαi1 engagement, agonist, BRET; scale = reference: reference agonist at wild-type CB1; measurement = Emax; result = 10.9 ± 2.2%
SMILES = COc1ccccc1C(C[N+](=O)[O-])c1c(-c2ccccc2)[nH]c2ccccc12 (centres unmarked); target or system = CNR1 (Homo sapiens, UniProt P21554, L387A); test = Gαi1-γ2 dissociation, BRET; measurement = Emax; result = 59.5 ± 3.43%
